Measured values pooled from the literature.
Compare with care: the assays were run in different laboratories.
Organism: Pseudomonas aeruginosa

SMILES	test	test system	conditions	MIC
C#CCOc1ccc(CN[C@@]2(C)C[C@H](O[C@H]3[C@H](Oc4c5cc6cc4Oc4ccc(cc4Cl)[C@@H](O)[C@@H](NC(=O)[C@@H](CC(C)C)NC)C(=O)N[C@@H](CC(N)=O)C(=O)N[C@H]6C(=O)N[C@H]4C(=O)N[C@H](C(=O)N[C@H](C(=O)N[C@@H](CCCNC(=N)N)C(N)=O)c6cc(O)cc(O)c6-c6cc4ccc6O)[C@H](O)c4ccc(c(Cl)c4)O5)O[C@H](CO)[C@@H](O)[C@@H]3O)O[C@@H](C)[C@H]2O)cc1OC	broth microdilution	ATCC 17978, cation-adjusted Mueller-Hinton broth	–	72 µM
CN[C@@H]1[C@H](O)[C@H](NC)[C@H]2O[C@]3(O)[C@H](O[C@@H]2[C@H]1O)O[C@H](C)C[C@H]3NC(=O)Cc1ccc(Cl)cn1	microbial growth, broth dilution	PAO1	–	> 200 µg/mL
CCCCCCCC(=O)N[C@@H](CCN)C(=O)N[C@H](C(=O)N[C@@H](CCN)C(=O)N[C@H]1CCNC(=O)[C@H]([C@@H](C)O)NC(=O)[C@H](CCN)NC(=O)[C@H](CCN)NC(=O)[C@H](Cc2ccc(F)cc2)NC(=O)[C@@H](CC(C)C)NC(=O)[C@H](CCN)NC1=O)[C@@H](C)O	broth microdilution	colistin-resistant isolates	–	32 to 64 µg/mL
CN[C@H](CC(C)C)C(=O)N[C@H]1C(=O)N[C@@H](CC(N)=O)C(=O)N[C@H]2C(=O)N[C@H]3C(=O)N[C@H](C(=O)N[C@H](C(=O)NCC(N)=O)c4cc(O)cc(O)c4-c4cc3ccc4O)[C@H](O)c3ccc(c(Cl)c3)Oc3cc2cc(c3O[C@@H]2O[C@H](CO)[C@@H](O)[C@H](O)[C@H]2O[C@H]2C[C@](C)(NCc3ccc(OCc4cn(CC(=O)N[C@H](C(=O)N[C@@H](CCN)C(=O)N[C@H]5CCNC(=O)[C@H]([C@@H](C)O)NC(=O)[C@H](CCN)NC(=O)[C@H](CCN)NC(=O)[C@H](CC(C)C)NC(=O)[C@@H](CC(C)C)NC(=O)[C@H](CCN)NC5=O)[C@@H](C)O)nn4)c(OC)c3)[C@H](O)[C@H](C)O2)Oc2ccc(cc2Cl)[C@H]1O	broth microdilution	ATCC 27736, cation-adjusted Mueller-Hinton broth	–	6 µM
CC[C@H](C)[C@H](NC(=O)[C@H](CCCNC(=N)N)NC(=O)[C@H](Cc1c[nH]c2ccccc12)NC(=O)[C@H](Cc1c[nH]c2ccccc12)NC(=O)[C@H](CCCNC(=N)N)NC(=O)[C@@H](N)CCCNC(=N)N)C(=O)N[C@@H](Cc1c[nH]c2ccccc12)C(N)=O	–	27023	–	8 µg/mL
CN[C@H](CC(C)C)C(=O)N[C@H]1C(=O)N[C@@H](CC(N)=O)C(=O)N[C@H]2C(=O)N[C@H]3C(=O)N[C@H](C(=O)N[C@H](C(=O)NCc4cn(CCCCC(=O)N[C@H](C(=O)N[C@@H](CCN)C(=O)N[C@H]5CCNC(=O)[C@H]([C@@H](C)O)NC(=O)[C@H](CCN)NC(=O)[C@H](CCN)NC(=O)[C@H](CC(C)C)NC(=O)[C@@H](CC(C)C)NC(=O)[C@H](CCN)NC5=O)[C@@H](C)O)nn4)c4cc(O)cc(O)c4-c4cc3ccc4O)[C@H](O)c3ccc(c(Cl)c3)Oc3cc2cc(c3O[C@@H]2O[C@H](CO)[C@@H](O)[C@H](O)[C@H]2O[C@H]2C[C@](C)(N)[C@H](O)[C@H](C)O2)Oc2ccc(cc2Cl)[C@H]1O	broth microdilution	ATCC 27853, cation-adjusted Mueller-Hinton broth	–	13 µM
CC[C@H](C)[C@H](NC(=O)[C@H](Cc1c[nH]c2ccccc12)NC(=O)[C@H](Cc1ccc(O)cc1)NC(=O)[C@H](CCCCN)NC(=O)[C@H](CC(C)C)NC(=O)[C@@H](N)CO)C(=O)N[C@@H](CCCNC(=N)N)C(=O)N[C@@H](Cc1ccc(O)cc1)C(=O)N[C@@H](CCCCN)C(=O)N[C@@H](CCCNC(=N)N)C(=O)N[C@@H](CCC(N)=O)C(=O)NCC(=O)N[C@@H](C)C(=O)N[C@@H](C)C(=O)N[C@@H](CCCNC(=N)N)C(=O)N[C@@H](Cc1ccccc1)C(N)=O	broth dilution	ATCC 27853	–	6.3 µM
CCCCCCCC(=O)N[C@@H](CCN)C(=O)N[C@H](C(=O)N[C@@H](CCN)C(=O)N[C@H]1CCNC(=O)[C@H]([C@@H](C)O)NC(=O)[C@H](CCN)NC(=O)[C@H](CCN)NC(=O)[C@H](CCCc2ccccc2)NC(=O)[C@@H](CC(C)C)NC(=O)[C@H](CCN)NC1=O)[C@@H](C)O	broth microdilution	colistin-resistant isolates	–	0.5 to 1 µg/mL
CC[C@H](C)[C@H](NC(=O)[C@@H](CCCNC(=N)N)NC(=O)[C@H](CCCNC(=N)N)NC(=O)[C@@H](NC(=O)[C@H](Cc1c[nH]c2ccccc12)NC(=O)[C@H](CCCNC(=N)N)NC(=O)[C@@H]1CCCN1C(=O)[C@H](CCCNC(=N)N)NC(=O)[C@@H]1CCCN1C(=O)[C@H](CC(C)C)NC(=O)[C@H](Cc1ccc(O)cc1)NC(=O)[C@@H]1CCCN1C(=O)[C@@H]1CCCN1C(=O)[C@H](CCCCN)NC(=O)[C@H](CC(=O)O)NC(=O)[C@@H](N)C(C)C)C(C)C)C(=O)N[C@@H](Cc1ccc(O)cc1)C(=O)N[C@@H](CC(N)=O)C(=O)N[C@H](CCCNC(=N)N)C(N)=O	broth microdilution	DSM 1117	18 h, 37 °C, 25% MHB2	128 µg/mL

For quick reference, copied from above:
SMILES	test	test system	conditions	MIC
CC[C@H](C)[C@H](NC(=O)[C@H](CCCNC(=N)N)NC(=O)[C@H](Cc1c[nH]c2ccccc12)NC(=O)[C@H](Cc1c[nH]c2ccccc12)NC(=O)[C@H](CCCNC(=N)N)NC(=O)[C@@H](N)CCCNC(=N)N)C(=O)N[C@@H](Cc1c[nH]c2ccccc12)C(N)=O	–	27023	–	8 µg/mL
